Experimental data collected from several papers.
Every numbered part comes from another study and shows a few of its results, in no order. Changes are numbered by the printed parent chain.

Set 1
Target: CCND3, cyclin fold, Cln2 fusion (human)
Method: yeast growth competition, sequencing
Sample: yeast
Setting: weak parent motif
Reference: not given
Direction: higher = stronger binding
Parent: CDKN1B docking peptide (human); PSACRNLFGPVDH; partner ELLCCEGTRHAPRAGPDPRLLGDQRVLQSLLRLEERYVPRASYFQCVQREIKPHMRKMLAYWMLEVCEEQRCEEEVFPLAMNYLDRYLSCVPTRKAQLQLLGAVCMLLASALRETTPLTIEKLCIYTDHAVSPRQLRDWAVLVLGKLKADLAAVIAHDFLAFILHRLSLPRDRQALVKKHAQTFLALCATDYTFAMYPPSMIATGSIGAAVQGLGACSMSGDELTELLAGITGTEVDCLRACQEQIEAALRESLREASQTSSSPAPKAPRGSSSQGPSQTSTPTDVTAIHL
`PSACRNLFGFVDH [P10F]`: “normalised enrichment score” 0.133.
For `PPACRNLFGPVDH [S2P]`, “normalised enrichment score” read 0.12.
For `PSACRNRFGPVDH [L7R]`, “normalised enrichment score” read 0.113.
`PSACYNLFGPVDH [R5Y]` — result for “normalised enrichment score”: 0.122.

Set 2
Target: ABI1, truncated, D143A, DHFR fusion (Arabidopsis thaliana)
Method: DHFR PCA, deep sequencing
Sample: yeast
Setting: methotrexate growth selection, single substitutions
Added: (+)-ABA 710 µM
Reference: wild-type fitted maximum
Direction: higher = stronger binding
Parent: PYL1, truncated, DHFR fusion (Arabidopsis thaliana); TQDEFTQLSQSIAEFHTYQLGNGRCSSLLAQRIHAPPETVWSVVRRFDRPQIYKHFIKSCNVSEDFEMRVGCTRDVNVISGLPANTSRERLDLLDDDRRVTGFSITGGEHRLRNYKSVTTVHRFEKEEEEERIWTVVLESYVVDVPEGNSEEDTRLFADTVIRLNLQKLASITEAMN; partner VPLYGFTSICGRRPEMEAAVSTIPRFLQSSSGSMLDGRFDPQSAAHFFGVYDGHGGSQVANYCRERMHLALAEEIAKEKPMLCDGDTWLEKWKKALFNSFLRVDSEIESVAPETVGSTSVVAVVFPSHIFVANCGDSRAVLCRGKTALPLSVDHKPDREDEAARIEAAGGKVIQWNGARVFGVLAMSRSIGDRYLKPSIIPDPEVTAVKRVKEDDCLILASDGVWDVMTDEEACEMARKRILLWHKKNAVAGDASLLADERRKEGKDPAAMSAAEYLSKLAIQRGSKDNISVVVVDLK
For `F47C`, “relative binding score” read -1.86%.
`L166S` — result for “relative binding score”: 1.4%.
Under “relative binding score”, `G23F` is recorded as 95%.
`L82W`: “relative binding score” 82.5%.

Set 3
Target: RNA binding protein fox-1 homolog 2, RRM domain, GST-SBP tag (RBFOX2, Homo sapiens, UniProt O43251-10, residues 100-194)
Method: RNA Bind-n-Seq
Molecule type: RNA
Sample: in vitro
Tested at: 365 nM
Setting: natural RNA segment, single round, ends assumed
Reference: no-protein control
Direction: higher = stronger binding
Residues (chain): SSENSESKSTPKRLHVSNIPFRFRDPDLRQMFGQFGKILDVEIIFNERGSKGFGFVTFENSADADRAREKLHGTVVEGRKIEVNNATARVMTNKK
`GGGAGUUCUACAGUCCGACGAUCUCAAAAGCUUGGCUUUAAAGUCUAAGGGAGUUUUAGAUCAAAAACUAGCUAUCACUUCCUGAGUGUCUCAUGUAGCCACUCAGGCUCCCAGGAGUUUCCUGAGGUAGGUUUGGAAUUCUCGGGUGCCAA`: “RBNS enrichment (R)” 0.219.
`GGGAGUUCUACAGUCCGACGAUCCCCCAGCUAAGAUAGCAUGAGGACGUUGUAUUCCAAUAUACGUAUGAUUGGGGCUACAAAGCUGAACUAAAGCAAGAUUGGUGAAGUGGCAGGGUUUAUAGAGAGAAGCCUGGAAUUCUCGGGUGCCAA` — result for “RBNS enrichment (R)”: 3.81.
Under “RBNS enrichment (R)”, `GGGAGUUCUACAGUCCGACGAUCGGUCAAAAAGUGAUGGCUUUCAGGACUUGUUUUUUAUCCUGCCUCACAGUUGUUAAAGUCUGUUCCAAGGCAUCACCUUCCUUCUCUACCCAACAACCCUGUGUAACAACUGGAAUUCUCGGGUGCCAA` is recorded as 0.341.
`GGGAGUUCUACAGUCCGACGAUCUUGCCAAGUGCCUCUGCAGACUGGCCUUCCACCCUAGGCGCGGGCAGUUGGCAGAAGAAAGGCAGGGCAGUGUGUAGUGGAUGGGCAGCCUGCUGGCAGCCUGCAUAGGCUGGAAUUCUCGGGUGCCAA` — result for “RBNS enrichment (R)”: 0.32.
`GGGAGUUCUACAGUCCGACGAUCCCAUCUGGCUGUGCCAUCCUGCAUUUUUAGGAAUGGAAAGCAGGCCUCUGAGGCAGUGGACAGGAAGACUUCUCAUCCUUGAAUUCUAGCUCCCAUUCCAAACUGUUAGUUGGAAUUCUCGGGUGCCAA` — result for “RBNS enrichment (R)”: 0.721.
`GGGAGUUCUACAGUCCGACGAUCAAGGAAGAAGAUAUCAGUAGAAAAGGAAAUUGCAACCCUCAGCUCUGCAAACUCAGUCUCAUGCUCCUGGAAUACCUUCAAUAGCUGCCUUCCUCACCGCAGAUGUUUCUUGGAAUUCUCGGGUGCCAA` — result for “RBNS enrichment (R)”: 0.469.
`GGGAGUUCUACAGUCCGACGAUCCCAGACGAGGUCCUCACAGGAGAAGGACAGCUCUUCCCCACCCUGGGAUCUCAGGAGGGCAGCCACGGAGUGGGGAGGCCCCAGAUGCGCUGUGCCAAAGCCAGGUCCGAUGGAAUUCUCGGGUGCCAA` — result for “RBNS enrichment (R)”: 0.444.

Single results of other studies
The fold induction of `PhoQ, residues 284 288 289 292 302 303 AANNSF` is reported as 28.6 (PhoP, residues 12 14 15 18 19 IQSYL (Escherichia coli, UniProt P23836); Sort-seq, item: YFP reporter; E. coli; PhoQ-PhoP variant library, added: 10 µM Mg2+; reference: high Mg2+ state, higher = stronger signaling).

Excerpt of the above (set 2):
Under “relative binding score”, `G23F` is recorded as 95%.
`L82W`: “relative binding score” 82.5%.
